Measurements collected from several papers.
Protocols differ between the studies behind these lines.
Target: Histone deacetylase 1 (HDAC1, Homo sapiens, UniProt Q13547)
Chain of UniProt Q13547 (whole entry, looked up): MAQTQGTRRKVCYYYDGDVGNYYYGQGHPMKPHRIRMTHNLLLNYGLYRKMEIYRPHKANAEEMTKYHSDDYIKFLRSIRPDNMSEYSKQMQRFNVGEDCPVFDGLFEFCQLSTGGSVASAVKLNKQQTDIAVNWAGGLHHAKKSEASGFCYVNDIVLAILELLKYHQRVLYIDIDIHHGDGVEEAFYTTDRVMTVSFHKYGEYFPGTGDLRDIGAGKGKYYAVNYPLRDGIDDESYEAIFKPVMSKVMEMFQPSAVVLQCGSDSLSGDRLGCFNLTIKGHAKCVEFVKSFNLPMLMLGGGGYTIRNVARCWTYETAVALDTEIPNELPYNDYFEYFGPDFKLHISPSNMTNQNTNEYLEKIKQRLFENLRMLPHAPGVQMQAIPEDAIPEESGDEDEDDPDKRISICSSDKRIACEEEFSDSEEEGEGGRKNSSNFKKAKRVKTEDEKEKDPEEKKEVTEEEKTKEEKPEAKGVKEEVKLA

O=C(NO)c1cnc(NC2(c3cccc(F)c3)CCCCC2)nc1  Kd (cell-free assay): > 30.2 µM
C[S@@](=N)(=O)c1ccc(C(=O)Nc2cc(-c3ccc(F)cc3)ccc2N)cc1  IC50 (target engagement in cells, BRET): 100 nM
O=C(CCc1ccc(CNC(C(=O)O)C2CCCCC2)cn1)NO (centres unmarked)  IC50 (enzyme activity, inhibitor): 550 nM
COc1ccc(C(=O)NO)cc1NC(=O)c1ccc(-c2ccccc2)cc1  Kd (inhibitor, competition pulldown; SW620 and MV4-11 lysate; 1 h): > 30.2 µM
Cc1nc2c(F)cc(-c3nc(Nc4ccc(NC(=O)CCCCCCCC(=O)NO)cc4)ncc3F)cc2n1C(C)C  IC50 (enzyme activity, inhibitor): 30 nM
CC(C)c1ccc(OS(=O)(=O)Oc2cncc(C(=O)NO)c2)cc1  Ki (enzyme activity, inhibitor, fluorescence): 438 nM
CCCCCCC(=O)Nc1ccc(Nc2ncc(F)c(-c3cc(F)c4nc(C)n(C(C)C)c4c3)n2)cc1  IC50 (enzyme activity, inhibitor): > 1000 nM
CC[C@H](C)[C@@H]1NC(=O)[C@H](Cc2ccccc2C(F)(F)F)NC(=O)CCSCc2cccc(n2)CSCCCNC(=O)[C@H](CCCCCC(=O)NO)NC1=O  Ki (enzyme activity, inhibitor, fluorescence): 2 nM
Cc1nc2c(F)cc(-c3nc(Nc4ccc(CC(=O)NCCCCCCC(=O)NO)cc4)ncc3F)cc2n1C(C)C  IC50 (enzyme activity, inhibitor): 12 nM
C=CC[C@@H]1NC(=O)CCSCc2nc3ccccc3nc2CSC/C=C/CNC(=O)[C@H](CCCCCC(=O)N(O)CCCCCC)NC1=O  Ki (enzyme activity, inhibitor, fluorescence): 230 nM
Cc1cc(C(C)(C)C)ccc1OS(=O)(=O)Oc1cccc(/C=C/C(=O)NO)c1  Ki (enzyme activity, inhibitor, fluorescence): 677 nM
